Values quoted from earlier work as cited in several papers.
Each line is one published result; not all experiments were run side by side. Numbers after ± are the reported error.

The IC50 of `COCCC/C=C/C(C)=C/[C@@H]1Cc2nc(cs2)[C@@H](C)C[C@@H](NC(=O)OC(C)(C)C)CC(=O)O[C@@H](C)C/C(C)=C/C=C\C(=O)O1` is reported as > 1 µM (Jurkat T cells; IL-2 reporter gene).
For `N.N.[Cl][Pt][Cl]`, the IC50 was 18.3 ± 11.6 µM (esophageal cancer cell lines, low GLUT1 expression; 17 cell lines, mean value).
With `N.N.[Cl][Pt][Cl]` the IC50 was 500 ± 18 µM (human PBMC; MTT; 24 h, dissolved in water).
`CO[C@H]1C[C@H](O[C@H]2CC[C@@]3(C)[C@@H](C2)C[C@@H]2O[C@]24[C@@H]3[C@H](O)C(=O)[C@]2(C)[C@@H](C3=CC(=O)OC3)CC[C@]42O)O[C@@H](C)[C@@H]1O` has an IC50 of 0.2 ± 0.12 µM (MDA-MB-435; cell viability; 72 h).
`COc1ccc(C[C@H]2COC(=O)[C@@H]2Cc2ccc(O)c(O)c2)cc1OC` has an IC50 of 0.3 µM (neutrophils; superoxide production; added: fMLF).
The IC50 of `CC(C)(C)c1ccc(S(=O)(=O)/C=C/C#N)cc1` is reported as 10 µM (endothelial cell line; I-κB phosphorylation, inhibitor; added: TNF-α).
For `Nc1nc2c(c(=O)[nH]1)C[C@@H](CCc1ccc(C(=O)N[C@@H](CCC(=O)O)C(=O)O)cc1)CN2`, the IC50 was > 100 µM (CCRF-CEM/MTX RFC-deficient; cell growth).
With `COC(=O)C(C)CCC[C@]1(C)CC[C@]2(O1)C(=O)C(C)=C(C)[C@@]2(O)C(C)=O` (stereo partly shown) the IC50 was 3.7 µM (human neutrophils; elastase release; added: fMLF).
The IC50 of `O=C(OC[C@H]1O[C@@H](OC(=O)c2cc(O)c(O)c(O)c2)[C@H](OC(=O)c2cc(O)c(O)c(O)c2)[C@@H](OC(=O)c2cc(O)c(O)c(O)c2)[C@@H]1OC(=O)c1cc(O)c(O)c(O)c1)c1cc(O)c(O)c(O)c1` is reported as ~6 µM (prostate cancer cell lines; BrdU incorporation; 2 h).
For `N.N.[Cl][Pt][Cl]`, the IC50 was 27.2 ± 1.71 µM (HeLa).
For `Aristolactam IIIa`, the IC50 was 0.72 µM (human neutrophils; elastase release; added: fMLF).
`CN(Cc1cnc2nc(N)nc(N)c2n1)c1ccc(C(=O)N[C@@H](CCC(=O)O)C(=O)O)cc1` has an IC50 of 0.02 µM (KB; cell growth; 96 h, added: folic acid 200 nM).
For `COc1c(OC)c2c(c(CCN(C)C)c1SC)SSSSS2`, the IC50 was 3.6 µM (MDA-MB-231; cell growth; previously reported).
`C=C1[C@H]2[C@@H]([C@@H](C(C)C)C[C@@H]1O)[C@H]1O[C@@H]2C[C@](C)(O)[C@@H](OC(=O)Cc2ccccc2)CC[C@@]1(C)OC(=O)CCC` gave an IC50 of 2.9 µM (human neutrophils; elastase release; added: fMLF).
`C=C1C[C@H](C)C(=O)N[C@@H](C)C(=O)N(C)[C@H](Cc2c(Br)[nH]c3ccccc23)C(=O)N[C@@H](c2ccc(O)cc2)CC(=O)O[C@@H](C)C[C@@H](C)C1=O` gave an IC50 of 3.4 µM (MCF7; cytotoxicity).
`ClC1=C(Cl)[C@]2(Cl)[C@@H]3[C@@H]4C[C@@H]([C@H]5O[C@@H]45)[C@@H]3[C@@]1(Cl)C2(Cl)Cl` has an IC50 of 143 µM (PC-12; cell viability, MTT; 1 h).
For `C[C@H]1O[C@@H](O[C@H]2[C@@H](O)C[C@H](O[C@H]3[C@@H](O)C[C@H](O[C@H]4CC[C@@]5(C)[C@H](CC[C@@H]6[C@@H]5C[C@@H](O)[C@]5(C)[C@@H](C7=CC(=O)OC7)CC[C@]65O)C4)O[C@@H]3C)O[C@@H]2C)C[C@H](O)[C@@H]1O`, the IC50 was 0.1 ± 0.01 µM (OVCAR-3; cell viability; 72 h).
`C=CCc1ccc(O)c(-c2cc(O)ccc2O)c1` gave an IC50 of 6.9 µM (human neutrophils; elastase release; added: fMLF).
For `CC1(C)CCC(c2ccc(Cl)cc2)=C(CN2CCN(c3ccc(C(=O)NS(=O)(=O)c4ccc(N[C@H](CCN5CCOCC5)CSc5ccccc5)c(S(=O)(=O)C(F)(F)F)c4)cc3)CC2)C1`, the IC50 was 2 µM (MDA-MB-231; cell growth).

A few entries again:
`COc1ccc(C[C@H]2COC(=O)[C@@H]2Cc2ccc(O)c(O)c2)cc1OC` has an IC50 of 0.3 µM (neutrophils; superoxide production; added: fMLF).
The IC50 of `CC(C)(C)c1ccc(S(=O)(=O)/C=C/C#N)cc1` is reported as 10 µM (endothelial cell line; I-κB phosphorylation, inhibitor; added: TNF-α).
